Published values collected from several papers.
Each numbered part is a random draw from the data of one study; scales do not carry over between parts.

Study 1 — technique: protein-binding microarray; form: double-stranded DNA, one strand shown; medium: in vitro; tested at: 940 nM top; notes: 60-bp whole probe; added: salmon DNA 0.4 mg/ml; reference: random background probes; reading: higher = stronger binding; shared flanks, not repeated: GCCTAGCAC … GTCTTGATTCGCTTGACGCTGCTG
Target: Interferon regulatory factor 5, full length, phosphomimetic (IRF5, Homo sapiens, UniProt Q13568-2, residues 1-514, S451D/S453D/S456D/S462D)
| Oligonucleotide | fitted relative affinity [z-score] |
| --- | --- |
| TCATATATCTGTGTTATACTGTGCTAG | 0.271 |
| GACGGTATCGGGTCTGGGGACGTGCTA | 4.69 |
| TTAGATAGCGGGTTTCGATTAGTGCTA | 5.43 |
| TTATGTATCGGGTTTCGGTTAGTGCTA | 7.25 |
| GACGGTATCGGTCGCGGGACGTGCTAG | 8.23 |
| TTAGATATCTGGACTGGATTAGTGCTA | -0.309 |
| CTGGTCTCCGGTGTTTCCTAGTGCTAG | 0.179 |
| TTAGGACTGCTTATCCTTGAGTGCTAG | -0.331 |
| GACGGTGTCGACTATCGGGACGTGCTA | 0.257 |
| GACGGTTTACTTTTCCTGACGTGCTAG | 0.518 |
| GACGATAGCAGTCTCGAGACGTGCTAG | 0.721 |
| TCATGTGTCTTAAATAGGACTGTGCTA | -0.00139 |
| GTCGAACTGGGGACTGGAGACGTGCTA | 0.0847 |

Study 2 — technique: RNA Bind-n-Seq; form: RNA; medium: in vitro; tested at: 365 nM; reference: no-protein control; reading: higher = stronger binding
Target: RNA binding protein fox-1 homolog 2, RRM domain, GST-SBP tag (RBFOX2, Homo sapiens, UniProt O43251-10, residues 100-194)
Notes: natural RNA segment, single round, ends assumed
Construct (chain): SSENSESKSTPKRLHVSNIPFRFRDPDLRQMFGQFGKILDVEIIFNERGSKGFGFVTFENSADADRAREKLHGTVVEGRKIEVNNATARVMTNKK
| Oligonucleotide | RBNS enrichment (R) |
| --- | --- |
| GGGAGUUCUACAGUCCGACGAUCUAAAAACUGCAAGUCUUGAAGAUUUUUGGCAUUCUUUUAAGUAUUUAAACUUAAUCUUUAUAGCUGCCCCAUACAGUAAUCUAUGACCUCUCUGAAUCACUCUUCAAUCUUGGAAUUCUCGGGUGCCAA | 0.373 |
| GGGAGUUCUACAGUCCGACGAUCGCUUCUGCCCUAUGUUUCUGUACUUCUAUUUGAACUGGAUAACAGAGAGACAAUCUAAACAUUCUCUUAGGCUGCAGAUAAGAGAAGUAGGCUCCAUUCCAAAGUGGGAAUGGAAUUCUCGGGUGCCAA | 0.539 |
| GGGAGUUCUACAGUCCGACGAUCCCUGACUGGGCUAAUGUGACACAUAUUGAGACUUAGGAAGAGCCACAAGACCACACACACAGCCCUUACCCUCCUCAGGACUACCGAACCUUCUGGCACACCUUGUACAGUGGAAUUCUCGGGUGCCAA | 0.523 |
| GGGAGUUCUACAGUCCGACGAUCUCUCUUGUUUUCAGGGAAAGAACAUAAAAGCUUUUUGAACUACAGCCUUUUUAAAAGAGGGAUGGGAGGAUAUUACAGUAAGAAAUUAGGCUUUCUAAAAGUAUGAAACAUGGAAUUCUCGGGUGCCAA | 0.452 |
| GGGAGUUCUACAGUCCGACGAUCUCUUUAUUUUACUGUGUGCCCCUGGCUGUCCUGGAAAUCACUAUAUUGCUCAGGCUGGCUUCGGACUCAGAGAUCUAUCUGCUUGCCUCCAACAUUUGAGAGCAGAGAGUUGGAAUUCUCGGGUGCCAA | 0.347 |
| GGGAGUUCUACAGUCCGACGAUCACCUCAGGAAAACUGUGCCCUCCGCCGGCUACCUUAGCUUAGCGUGUCAGCGGGCGCCACAGCGGAUCAGCGGUUCCGUGUUCACUUUUGUUGUACAAUAUAUGACACAGUGGAAUUCUCGGGUGCCAA | 0.174 |
| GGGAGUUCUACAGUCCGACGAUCAACUAGGCAGGCAAUGGCUCCAGUGCCCUCCCUCUGUUCCCUGGACCACCACCCCACGUAGCUGCUCACACCAGCCUCCGGGUGCCUCCCUCUGCUUGUACAGAGCCCAUUGGAAUUCUCGGGUGCCAA | 0.246 |
| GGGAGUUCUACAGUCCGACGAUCCGAGAGGGCACGGGUGGGUGCUCACAGUGGGACCUUCUUGGAGGAAUCUCAGAGGGGGACAGAGAUGAGAUGUGCAUUCCUGGCUGCCACCUGCAUUCCUGAGGAACUCUUGGAAUUCUCGGGUGCCAA | 0.764 |

Study 3 — technique: RNA Bind-n-Seq; form: RNA; medium: in vitro; tested at: not given; reference: input RNA pool; reading: higher = stronger binding
Target: RING finger protein unkempt homolog, zinc fingers 1-6, GST-SBP tag (UNK, Homo sapiens, UniProt Q9C0B0, residues 30-357)
UniProt Q9C0B0, sequence (30-357, looked up): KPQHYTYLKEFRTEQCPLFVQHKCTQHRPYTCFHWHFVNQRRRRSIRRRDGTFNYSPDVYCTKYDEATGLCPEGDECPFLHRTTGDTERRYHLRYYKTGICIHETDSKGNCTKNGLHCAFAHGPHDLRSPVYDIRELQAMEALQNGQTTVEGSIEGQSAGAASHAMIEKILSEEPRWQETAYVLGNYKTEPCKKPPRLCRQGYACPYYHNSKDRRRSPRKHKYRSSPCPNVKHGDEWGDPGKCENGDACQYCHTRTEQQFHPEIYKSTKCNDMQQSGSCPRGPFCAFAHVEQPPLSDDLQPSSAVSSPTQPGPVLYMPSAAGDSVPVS
Notes: RNA with constant flanks, human and mouse sites, ends assumed
| Oligonucleotide | bound/input enrichment [ratio] |
| --- | --- |
| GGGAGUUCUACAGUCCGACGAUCGCCAACCAGGCGUCAGCUACUUCCGAAGAGUGUACGGUUGCAUGGGGAGUCUGCAACCAUGCUUUUCAUUUCCACUGCAUCUCUCGAUGGCUCAAAACGAGGCAGGUGUGUCCGUUGGACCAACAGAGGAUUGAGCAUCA | 0.135 |
| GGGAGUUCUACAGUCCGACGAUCACAGACAUCCGCUGCCCCUUUGAAAAACGAAGAGAUGCAGCAUGCGUGUUUUGGGACAAUGUAGUAUACAUUUUGGGAGGCUCUCAGCUUUUCCCAAUAAAGCGAAUGGACUGCUAUAAUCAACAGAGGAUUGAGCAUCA | 0.119 |
| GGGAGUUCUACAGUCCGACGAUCGGAGAGGUGUAUGCGGAAUGCCUCAGUGACAGCAGCAUAUUUGUACAGAGUAGGAACUGCAACUUUCAUCAUGGCUUUCAUCCCACCACUGUCUGUAAGAUUCCCAGCAGCUGCAGCCUCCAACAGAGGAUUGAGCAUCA | 0.201 |
| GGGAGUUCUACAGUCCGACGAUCCCUCCAGAGUUCGGAUUUCCUGAGAAGAUAACAGUGAAACAGCGUUAUCGCCUACUUGGAAAUAGUCUCAACGUGCAUGUAGUAGCUAAACUAAUCAAAAUCUUAUAUGAAUAAUUUUGACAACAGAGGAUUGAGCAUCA | 1.4 |
| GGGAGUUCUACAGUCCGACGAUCCUAACCUUCCUUCGAAUUCGCUCCAAGAAAAAUGAAAUUAUGGUGGCACCAGAUAAAGACUAUUUCCUGAUUGUGAUCCAGAAUCCAACUGAAUAAGCCACUGUCUGGGCUUCCUGUGUCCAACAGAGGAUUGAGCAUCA | 0.174 |
| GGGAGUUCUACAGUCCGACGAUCUGCCUCUCAUUCAAUCCCUACAGCGAAUUUAUUCUAGCCACCGGCUCUGCGGAUAAGACCGUAGCUUUAUGGGAUCUGCGUAACUUAAAAUUAAAACUCCAUACCUUCGAAUCUCAUAAACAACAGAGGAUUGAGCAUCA | 0.385 |
| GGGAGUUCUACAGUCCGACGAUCCUGCAGAGCAAACCACCUCCUGGGAUUGGUGAAAGUUUGGGUGUAAAUGUGACUGAGAAAAUAGAAAUUCAUCUUGAAGAACCAGCCCCUUCAGAUAAACAGCUCUCUAAUGAUGCAGCGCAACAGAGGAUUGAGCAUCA | 0.406 |
| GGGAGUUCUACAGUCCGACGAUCAUUGGUGGUGCUUCUAGUCGAGGUGAAAAUUCUUAUGGACUAGAAACUGUGUGUAAGGAUAUUAGGAAUUUACGAUUUGCUCAUAAACCUGAGGGGCGGACAAGAAGAUCCAUAUUUGAGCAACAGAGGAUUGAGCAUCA | 2.35 |

Study 4 — technique: protein binding microarray; form: double-stranded DNA, one strand shown; medium: in vitro; tested at: not given; reference: not given; reading: higher = stronger binding
Target: Histone acetyltransferase KAT6A, both winged helices, GST fusion (KAT6A, Homo sapiens, UniProt Q92794, residues 1-181)
Notes: 8-mer, flanks averaged, mean of 2 arrays, mostly near background
Residues (chain): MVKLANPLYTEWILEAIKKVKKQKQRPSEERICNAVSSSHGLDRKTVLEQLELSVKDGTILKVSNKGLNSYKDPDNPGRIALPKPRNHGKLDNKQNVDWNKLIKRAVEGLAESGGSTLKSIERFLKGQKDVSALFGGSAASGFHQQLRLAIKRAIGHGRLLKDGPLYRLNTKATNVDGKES
| Oligonucleotide | E-score |
| --- | --- |
| ATTCTGCC | 0.0118 |
| GAGAGAAA | -0.165 |
| TAACGTGA | 0.0799 |
| CAACGTGA | -0.0986 |
| CTGGGCGA | -0.0516 |
| AAGCTAGC | -0.0818 |
| AACCACGT | -0.072 |
| CCTTCTCA | -0.128 |
| TGGCGAAA | -0.0485 |
| AAAGCATG | -0.0522 |
| AATTCAGG | -0.111 |
| GCGGGTCC | 0.245 |
| CTGAGCGA | 0.0927 |
| ATATGGGA | -0.165 |

A few entries again (study 4):
| Oligonucleotide | E-score |
| --- | --- |
| AAAGCATG | -0.0522 |
| AATTCAGG | -0.111 |
| GCGGGTCC | 0.245 |
| CTGAGCGA | 0.0927 |
